Earlier results as cited in several papers.
Protocols differ between the studies behind these lines. Numbers after ± are the reported error.

N=C(N)c1ccc(OCCCCCOc2ccc(C(=N)N)cc2)cc1  IC50 (Trypanosoma evansi; cell growth; Tansui): 0.00097 ± 0.00019 µM
C[C@]12CC[C@@H]3c4ccc(O)cc4CC[C@H]3[C@@H]1CC[C@@H]2O  EC50 (HT-22; cell protection; together with: glutamate 20 mM): 1.98 µM
Cc1cc(C(C)Nc2ccccc2)c2oc(-c3ccncc3)cc(=O)c2c1 (stereo not drawn)  IC50 (phosphatidylinositol 5-phosphate 4-kinase type II beta; enzyme activity, inhibitor; together with: 10 µM ATP): > 100 µM
C[C@]12CC[C@@H]3c4ccc(O)cc4CC[C@H]3[C@@H]1CC1(CCCC1)C2=O  EC50 (HT-22; cell protection; together with: glutamate 10 mM): 9.02 µM
O=P(O)(O)OC[C@H]1O[C@H](OP(=O)(O)OP(=O)(O)O)[C@H](O)[C@@H]1O  kcat (HGPRT Trypanosoma cruzi isoform C; substrate, refers to: IMP; 6 to 200 µM, together with: hypoxanthine 100 µM): 24 ± 1 s⁻¹
COc1ccc2c(c1OC)N=C(NC(=O)c1cccnc1)N1CCN=C21  IC50 (phosphatidylinositol 5-phosphate 4-kinase type II beta; enzyme activity, inhibitor; together with: 10 µM ATP): > 100 µM
C[C@]12CC[C@@H]3c4ccc(O)cc4CC[C@H]3[C@@H]1CCC2=O  EC50 (HT-22; cell protection; together with: glutamate 20 mM): 8.92 µM
Oc1cccc(-c2nc(N3CCOCC3)c3oc4ncccc4c3n2)c1  IC50 (ATR; kinase activity, inhibitor; together with: 10 µM ATP): 0.85 µM
CCC(C)c1c(O)ccc2c1CC[C@@H]1[C@@H]2CC[C@]2(C)C(=O)CC[C@@H]12 (stereo partly drawn)  EC50 (HT-22; cell protection; together with: glutamate 10 mM): 0.244 µM
CC(=O)c1cccc(N[C@H]2[C@H](N)[C@@](NC(=O)N(C)C)([C@H](C)O)[C@@](C)(O)[C@@]2(O)COC(=O)c2c(C)cccc2O)c1  GI50 (HCT-15 (colon cancer); cell growth; NCI screen data): 0.03 µM
C[C@]1(c2nc3c(C(N)=O)cccc3[nH]2)CCCN1  median progression-free survival (human, metastatic TNBC; 300 mg twice daily, days 1-14, together with: cisplatin 75 mg/m^2): 5.7 months
Cc1ccc([N+](=O)[O-])cc1S(=O)(=O)N(C)/N=C/c1cnc2ccc(Br)cn12  IC50 (phosphatidylinositol 4-phosphate 5-kinase type I beta; enzyme activity, inhibitor; together with: 10 µM ATP): > 100 µM
Cc1ccc(C(=O)Nc2ccc(S(=O)(=O)O)c3cc(S(=O)(=O)O)cc(S(=O)(=O)O)c23)cc1NC(=O)c1cccc(NC(=O)Nc2cccc(C(=O)Nc3cc(C(=O)Nc4ccc(S(=O)(=O)O)c5cc(S(=O)(=O)O)cc(S(=O)(=O)O)c45)ccc3C)c2)c1  IC50 (Trypanosoma congolense; IL3000): 7.17 ± 0.87 µM
CC(=O)O[C@H]1Cc2ccccc2N(C(N)=O)c2ccccc21  focal seizure threshold increase (afterdischarge threshold; mouse kindling model; i.p., 300 mg/kg, 15 min before stimulation): > 1320%
C[C@]12CC=C3c4ccc(O)cc4CC[C@H]3[C@@H]1CC[C@@H]2O  EC50 (HT-22; cell protection; together with: iodoacetic acid 20 µM): 0.253 µM

Repeated from above:
O=P(O)(O)OC[C@H]1O[C@H](OP(=O)(O)OP(=O)(O)O)[C@H](O)[C@@H]1O  kcat (HGPRT Trypanosoma cruzi isoform C; substrate, refers to: IMP; 6 to 200 µM, together with: hypoxanthine 100 µM): 24 ± 1 s⁻¹
COc1ccc2c(c1OC)N=C(NC(=O)c1cccnc1)N1CCN=C21  IC50 (phosphatidylinositol 5-phosphate 4-kinase type II beta; enzyme activity, inhibitor; together with: 10 µM ATP): > 100 µM
